# Measured values of several laboratories.
# Each numbered part is a random draw from the data of one study; scales do not carry over between parts. Substitutions count along the parent as printed.

# Set 1 — technique: RNA Bind-n-Seq; form: RNA; medium: in vitro; tested at: 365 nM; relative to: no-protein control; reading: higher = stronger binding
# Target: RNA binding protein fox-1 homolog 2, RRM domain, GST-SBP tag (RBFOX2, Homo sapiens, UniProt O43251-10, residues 100-194)
# Setting: natural RNA segment, single round, ends assumed
# All sequences stand within: GGGAGUUCUACAGUCCGACGAUC … UGGAAUUCUCGGGUGCCAA
# Residues (chain): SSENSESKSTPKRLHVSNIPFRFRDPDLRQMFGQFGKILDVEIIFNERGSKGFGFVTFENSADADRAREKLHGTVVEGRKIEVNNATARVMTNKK
Strand,RBNS enrichment (R)
GAGGGAGGAGGGAGCCUGCUCACCCCACUCCAGGGCCUUCCCCAGCGGCCACCAACUGACCUGGGGCGCUGCUCCCCACAGUCCAAAUAAGCUGAAAGUGCAGCUCGCUG,0.562
UUCUUGUCUGUAUUGGUUUUUGAUCACGGCCUGGUGUUGUGAUACUGGGAAGAGCAUUAGCCAAGAACUUGUCUCUUUGAUCUGUUUCGUUAAGCUGAACCAGUGUCUUU,0.347
UCCUCUUCCUCCUGCUCUGGGUUGGCAUCUACGUUAAGUCUCCAAGGGUACCCACCAGGCAGCUCACCAAGUCUCUGCUUUUGUAAAUUAAUUUUUUACCAUUGCUACGU,0.587
GAAGGCUGUCAGCUGCUCAGCCUGCUUUGAGCCUCAGUGAGAAGUCCUUCCGACAGGAGCUGACUCAUGUCAGGAUGGCAGGCCUGGUAUCUUGCUCGGGCCCUAGCUGU,0.805
UGACGCUCAUCUGCGUCUCCGUCUGCUAGGUGGUCGGUGAUAAAUUCAAAUGUAUCAGAUCUCUGUGCCAGAUACUCAUAUUAGUAUACCCUGUUCAAAGGAGAAUGGUG,0.317
AAUCUGAGCCCAGCAGGAGAGGAUGGUAGGGUUGCCAGGGCUCAGAAGUGCAAGCUGAUUACUCACCCCACCCUGCCUCGCCGCACCUUUCCUUUGUUUCCUUGGGUGAA,1.41
CUGAGGCUGACUUCAGCUCCUGGACACCCUUAGAAUUCCUAGUUGGAACUUUCCAUGACUGGAUCACAGGGAAAAACCGACCGAGCUCAGGAAGCCUAAUCCAGGUGGUA,0.254
GAGAAUUAAAACUGGGGAGCCAUUUACUAUGUCACCAUCACUGUUAACUGUUUCCCAGCAAUCUAAACUUUUUGAAGUUUCAGAGGUGUAUUUUUUUUUUGUAUAUAUGU,0.478
UUGUUUUUACAACUGUUCCUUUCACAAGCAAGCCUUAAAAAAAAAAAAGACAACUUCCUUUUUCUUCAGCUCCCACACCCCAUUUUUCUUAGCAGACUGCAGUCAAUCCA,0.601
UCCCCACCAAGUGGCCUCUUAGACUAGUCAUUAACUUAUGAUUAGCUCUAAAGAUUUCAAAUAGUGGCAGACAGUGUCUUCUGAAUGUAAGUUUUGAGAAAUACGAGUCU,0.22
GUCGUCUUCAGUUUUAGAGGUUUACUUCUCCCUUGCCUUUGACUCAUUGGACUAGUGCAGAGGCUUUAAGUAGUUUAAAAUGGGCUUUUGCUUUUCUAGGUCAUUAACGU,0.85
GAAUUUUUACAAAUAUAAAAAGGAAAAAGUAUAUUAGUGUAAUUUGUUUAGGAAUAGCUACAUACCGAAGGGCUUCUAUACAUGAAUUCUAGGGGCAAAAGCCUUUUGUA,0.809

# Set 2 — technique: universal PBM; form: double-stranded DNA, one strand shown; medium: in vitro; tested at: not given; reading: higher = stronger binding
# Target: Sal-like protein 4, full length isoform B (SALL4, Homo sapiens, UniProt Q9UJQ4-2, residues 1-616)
# Setting: 8-mer, flanks averaged, mean of replicates
Strand,E-score
CGCAAGAC,-0.0658
CGCTCGAA,-0.1
AAGGTTCT,-0.0169
AACTAATG,0.239
GCGGAGAC,-0.192
CCAAGAGC,-0.326
CTGTACGC,-0.117
GACAGTCA,-0.182
CTCGACAG,-0.129
GTCCAAGA,-0.21
TAGTAACA,0.171
CGAGATAA,0.1
ACATTGGG,-0.0905
GTGATTAA,0.219
CCTTCCGC,-0.221
ACCGGTGA,-0.17
CTGAGTTC,-0.0965
CCTGACGC,-0.291
AGCAGGAA,0.0418
AGTCACCA,-0.136
CCAATGGA,-0.146
CGACCCAC,-0.209
GCTGGCCA,-0.263
ATTCTGAC,0.0143
AGGGCGCG,-0.222

# Set 3 — technique: protein binding microarray; form: double-stranded DNA, one strand shown; medium: in vitro; tested at: not given; relative to: not given; reading: higher = stronger binding
# Target: Histone acetyltransferase KAT6A, winged helix 1, GST fusion (KAT6A, Homo sapiens, UniProt Q92794, residues 1-85)
# Setting: 8-mer, flanks averaged, mean of 2 arrays, mostly near background
# Construct (chain): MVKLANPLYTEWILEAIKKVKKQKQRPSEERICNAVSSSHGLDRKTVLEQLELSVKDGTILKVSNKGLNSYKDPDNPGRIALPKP
Strand,E-score
CTGGAGAC,-0.124
CAATATTC,-0.168
AACACAGT,-0.17
GTACGTAC,0.0727
CCAAGTAA,-0.0428
GAGCGAAC,-0.0284
CTGAACCC,0.0977
CACTTGGA,-0.24
ACATTGAC,0.0451
AGCTCGCA,-0.183
ATACGAAT,-0.221
TCATTAGA,-0.0869
AGAGATAG,-0.0484
ATCTAAGC,-0.0488
CATCACAA,-0.151
ACCATTTG,0.00271
CCGGCTCG,0.251

# Set 4 — technique: RNA Bind-n-Seq; form: RNA; medium: in vitro; tested at: 20 nM; setting: 6-mer, flanks averaged, single round; added: 150 mM LiCl; relative to: input library; reading: higher = stronger binding
# Target: TAR DNA-binding protein 43, full length, His tag (TARDBP, Homo sapiens, UniProt Q13148, residues 1-414)
Strand,6-mer enrichment (R)
ACAUUG,0.887
GCGAGA,1.01
CGAUGA,0.872
CUAGUA,0.878
AGUGAU,0.981
CAUCGG,0.828
CGACCC,0.938
CGUCUC,0.871
GCGGAG,1.12
UGCGCG,1.14
GGACGG,1.14
UGCGCC,1.03
AGUACU,0.824
UAAAGA,0.833
GAAAUU,0.89
CUCGGG,0.908
UUAAAC,0.873
AUGAAC,0.881
AGCGAC,0.837

# Set 5 — technique: protein-binding microarray; form: double-stranded DNA, one strand shown; medium: in vitro; tested at: not given; reading: higher = stronger binding
# Target: Transcriptional repressor CTCF (CTCF, Homo sapiens, UniProt P49711, residues 1-727, full length assumed)
# Sequence of UniProt P49711 (whole entry, looked up): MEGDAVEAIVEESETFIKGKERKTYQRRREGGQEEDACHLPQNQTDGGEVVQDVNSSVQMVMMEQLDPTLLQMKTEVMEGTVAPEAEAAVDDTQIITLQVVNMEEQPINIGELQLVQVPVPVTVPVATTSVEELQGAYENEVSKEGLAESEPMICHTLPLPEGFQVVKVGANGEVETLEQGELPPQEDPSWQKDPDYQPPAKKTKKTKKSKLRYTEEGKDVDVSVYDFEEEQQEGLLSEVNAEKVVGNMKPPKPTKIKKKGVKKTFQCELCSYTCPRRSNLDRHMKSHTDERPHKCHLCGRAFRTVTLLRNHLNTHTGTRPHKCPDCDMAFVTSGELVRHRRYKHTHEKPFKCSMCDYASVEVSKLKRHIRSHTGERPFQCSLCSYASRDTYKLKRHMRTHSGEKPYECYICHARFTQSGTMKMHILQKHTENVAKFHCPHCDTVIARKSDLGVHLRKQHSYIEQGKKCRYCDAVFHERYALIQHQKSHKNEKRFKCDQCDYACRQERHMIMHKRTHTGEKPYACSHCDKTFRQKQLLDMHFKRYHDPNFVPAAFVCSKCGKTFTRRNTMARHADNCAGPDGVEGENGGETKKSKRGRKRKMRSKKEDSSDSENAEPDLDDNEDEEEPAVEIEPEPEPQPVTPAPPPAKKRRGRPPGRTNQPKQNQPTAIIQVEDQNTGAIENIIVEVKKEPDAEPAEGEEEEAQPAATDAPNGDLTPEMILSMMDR
# Setting: k-mer, scored over probes, only values ≥0.25
Strand,E-score
TAAGTATA,0.278
GCGCCGCC,0.404
AAAATTGC,0.253
CGTATACG,0.293
CTTTTCAC,0.316
CATAACAA,0.307
CGTTTTTC,0.257
ACATGTAA,0.318
CGTAAATA,0.291
AATATATG,0.367
GATGCGCC,0.269
TTGCAAAA,0.252
TAACAGAA,0.294
CATATAGG,0.315
ACATAAAC,0.288
TATATTGA,0.361
ATGTATAC,0.289
CTTATATA,0.331
AATAAAAT,0.259
TAGGGGGA,0.355
CATATACA,0.356
CATAATAA,0.269
AGAATATA,0.281
ATGGCGCA,0.428
AATCAGCT,0.325

# Set 6 — technique: aptamer microarray, sandwich; form: DNA with 2'F-ANA; medium: in vitro; tested at: 200 nM; added: Cy3 exosite-II aptamer, 400 nM; reading: higher = stronger binding; strand: GGTTGGTGTGGTTGG
# Target: Prothrombin, mature alpha-thrombin (F2, Homo sapiens, UniProt P00734)
# Setting: whole 15-mer aptamer, many near background
Modification,mean fluorescence intensity [a.u.]
2'F-ANA at 2 3 4 6 9 12 13 15,526
2'F-ANA at 3 4 9 11 12 14 15,313
2'F-ANA at 1 3 5 6 7 8 9 10 11 12 13,95.5
2'F-ANA at 2 5 6 7 8 10 11 13,47.8
2'F-ANA at 1 3 4 5 6 7 9 10 13 14,46.8
2'F-ANA at 1 7 9 12 13 14 15,116
2'F-ANA at 1 2 3 6 7 9 10 11 13 14,55.3
2'F-ANA at 1 2 3 4 5 7 9 11 15,83.4
2'F-ANA at 10 11 12,245
2'F-ANA at 4 6 8 9 10 11 12 13 14 15,57.2
2'F-ANA at 1 2 4 5 7 12,105
2'F-ANA at 2 3 4 6 7 11 13 14,219
2'F-ANA at 1 4 5 6 7 14 15,46
2'F-ANA at 1 2 3 4 5 6 9 10 11 12 13,50
2'F-ANA at 1 2 3 5 7 8 13 14 15,48.5
2'F-ANA at 6 7 8 9 10 11 12 15,174

# Set 7 — target: CCNB2, cyclin fold, Cln2 fusion (human); technique: yeast growth competition, sequencing; medium: yeast; setting: weak parent motif; relative to: not given; reading: higher = stronger binding
# Parent: WEE2 docking peptide (human); KELRQKLNFSYCE
Substitution,normalised enrichment score
KELRQKLNFAYCE [S10A],0.509
KALRQKLNFSYCE [E2A],0.705
KELRQKLNFSACE [Y11A],0.909
KELRQKLAFSYCE [N8A],0.816
AELRQKLNFSYCE [K1A],0.533
KELRQALNFSYCE [K6A],0.41
KELRQKLNFSYAE [C12A],0.44

# For quick reference, copied from above (set 4):
Strand,6-mer enrichment (R)
UAAAGA,0.833
CGAUGA,0.872
AUGAAC,0.881
ACAUUG,0.887
CGUCUC,0.871
UGCGCC,1.03
UGCGCG,1.14
CAUCGG,0.828
UUAAAC,0.873
CUAGUA,0.878
GGACGG,1.14
